Published values collected from several papers.
Compare with care: the assays were run in different laboratories. ± marks the error that the study gave.

SMILES	assay	test system	conditions	quantity	result
COc1cc2c(Oc3ccc4[nH]c(C)cc4c3F)ccnc2cc1OCC1(N)CC1	–	paediatric recurrent refractory sarcoma	10 mg	grade 1 or 2 hand-foot syndrome	50%
C=CC(=O)N1CCC(CNc2ncnc(N)c2-c2ccc(Oc3ccccc3)cc2)CC1	–	mouse	GLP pivotal toxicology	NOAEL	1000 mg/kg
c1csc(CNc2cc[nH]n2)c1	micronucleus	CD-1 mouse Hsd:ICR(CD-1), female, bone marrow	oral, 1000 mg/kg/day, 3 days	PCE to total erythrocyte ratio	0.471
Clc1ccc(-c2ccccc2)cc1	–	rat Sprague-Dawley female, serum	inhalation, 35 µg/rat, 24 h	serum Triglycerides	48 ± 11 mg/dL
CCc1ccc(CC/C=C/c2ccc3c(c2)C(=O)CC3)cc1	–	Sprague-Dawley rat, female	oral, 450 mg/kg/day, 14 days	Platelet percentage	1.06%
CC(C)[C@@H]1NC(=O)CNC(=O)[C@H](CC(N)=O)NC(=O)[C@H](CCCNC(=N)N)NC(=O)[C@H](Cc2ccc(O)cc2)NC(=O)[C@H](C(C)C)NC(=O)[C@@H](NC(=O)[C@@H](NC(=O)[C@H](CC(N)=O)NC(=O)[C@H](Cc2c[nH]c3ccccc23)NC(=O)[C@H](C)NC(=O)[C@H](Cc2ccccc2)NC(=O)CN)C(C)C)CSSC[C@@H](C(=O)N[C@@H](Cc2cnc[nH]2)C(=O)N[C@@H](CCCNC(=N)N)C(=O)N[C@@H](CCCNC(=N)N)C(=O)N[C@@H](C)C(=O)N[C@@H](CC(N)=O)C(N)=O)NC(=O)[C@H](C(C)C)NC(=O)[C@H](CCCNC(=N)N)NC1=O	–	ICR mice, blood	intraperitoneal, 5 mg/kg, day 5	platelet distribution width	16 ± 0.62%
C[C@]1(O)C[C@@](N)(c2ccc(-c3nc4n(c3-c3ccccc3)COc3ccncc3-4)cc2)C1	–	human, advanced or metastatic solid tumours	16 mg once daily, dose-ranging cohort	patients with AST increased TEAE	100%
COc1ccc2c(c1)NC(=O)CN2c1nc(C)nc2c1CCC2	measured: unchanged compound	Sprague-Dawley rat, both sexes, urine	intravenous, 2 mg/kg	cumulative urinary excretion	0.00134%
CC(=O)c1c(C)c2cnc(Nc3ccc(C4CCN(CCS(C)(=O)=O)CC4)cn3)nc2n(C2CCCC2)c1=O	–	human, dose-escalation trial, plasma	oral, 50 mg twice daily, day 1, single dose	clearance	2580 mL/min
CS(=O)(=O)NC(=O)NCc1ccccc1	–	–	pH 7.4, first measurement	logD	-1.19
N=C(CC(O)c1cc2c(F)cc(F)cc2c2cc(C(F)(F)F)ccc12)Nc1ccc(Br)cc1 (centres unmarked)	–	human blood	50 ng/mL, 30 min	blood-to-plasma ratio	1 ± 0.08
O=c1ccc2ccc3occc3c2o1	post-procedure stability	rat plasma	8 ng/mL, 3 h, room temperature	accuracy	102%
N[C@@H]1c2ccccc2OC12CCN(c1cnc3c(N4CCCc5ncccc54)n[nH]c3n1)CC2	–	advanced solid tumour patients	oral, 60 mg once daily	serious TEAE grade ≥3	20%
Cn1cc(-c2nc(N[C@@H]3CCCC[C@@H]3N)c(F)c3c2C(=O)NC3)cn1	measured: Gastric haemorrhage	patients with relapsed or refractory AML	oral, dose not given, all doses	hemorrhagic adverse events	9%
CC(C)NCCCC[C@@H]1NC(=O)[C@H](Cc2ccc(O)cc2)NC(=O)[C@H](Cc2ccccc2)NC(=O)CC[C@H](C(=O)N[C@@H](CCCCNC(C)C)C(=O)N[C@@H](CCCCNC(=O)[C@H](CCC(=O)O)NC(=O)[C@H](CCC(=O)O)NC(=O)[C@H](CCC(=O)O)NC(=O)CN2CCN(CC(=O)O)CCN(CC(=O)O)CC2)C(N)=O)NC(=O)CNC(=O)[C@H](Cc2ccc3ccccc3c2)NC(=O)[C@@H](CCCNC(=N)N)NC1=O [fluorine-18 labelled]	PET/CT	female CB17 SCID beige mice, U87.CD4 control xenograft, tumour	intravenous	standardized uptake value	0.04 SUV
C[C@@H](NC(=O)N1C(=O)[C@H](Cc2ccnc(N)c2)[C@H]1C(=O)O)C1CCCCC1	–	healthy Chinese adult volunteers	continuous intravenous infusion, dose not given, 5.0 days, all doses pooled	abnormal liver function leading to discontinuation	7.5%

SMILES	assay	test system	conditions	quantity	result
CN(C)C(=O)c1cc2cnc(Nc3ccc(N4CCNCC4)cn3)nc2n1C1CCCC1	measured: dyspnoea	HR+/HER2− advanced breast cancer patients	oral, dose not given, not drug-related	serious adverse event incidence	1.5%
CC(C)=CC1C(C(=O)OC(C#N)c2cccc(Oc3ccccc3)c2)C1(C)C (centres unmarked)	measured: CYP2C9	human, age 5 years	–	enzyme contribution to clearance	7.49%
COc1ncccc1-c1cnn2ccc(N3CCN(C(=O)OC(C)C)CC3)nc12	–	mouse, formalin test, plasma	oral, 10 mg/kg, 60 min	drug concentration	4.1 µM
[O-][S+]1CCc2nc(N3CCC(c4ncc(Cl)cn4)CC3)nc(NC3(CO)CCC3)c21 (centres unmarked)	measured: upper abdominal pain	healthy male humans	36 mg single dose	adverse event incidence	16.7%
NCCCC[C@@H]1NC(=O)[C@@H](Cc2c[nH]c3ccccc23)NC(=O)[C@H](c2ccccc2)NC(=O)[C@@H]2C[C@@H](OC(=O)NCCN)CN2C(=O)[C@H](Cc2ccccc2)NC(=O)[C@H](Cc2ccc(OCc3ccccc3)cc2)NC1=O	–	healthy volunteers, female	600 µg twice daily, 8.0 h, post hoc	placebo-corrected QTcF change	-0.9 ms
CC(C)(O)c1cc(Nc2cc(Oc3cn(C4CC4)nc3C3CCOCC3)ccn2)ccn1	Pyrexia	advanced cancer patients, dose escalation	oral, dose not given, 3 weeks on/1 off, all causality grade ≥3	treatment-emergent adverse events	0%
C[C@]1(CO)Cc2ncn(-c3ccc(C#N)c(Cl)c3)c2C(=O)O1	–	Chinese subjects	dose not given, all doses total	drug-related Acne incidence	0%
C=CC(=O)N1CC[C@H](n2nc(C#Cc3cc(OC)cc(OC)c3)c3c(N)ncnc32)C1	measured: dry mouth	healthy adults	oral, grade ≥3, pooled treatments	TEAE incidence	0%
O=C(Nc1ccccc1)C1CCN(C(=O)Oc2cccnc2)CC1	measured: ear and labyrinth disorders	healthy women	oral, 20 mg, 7 days	subjects with adverse event	0%
CCOC(=O)C(CCCOC)NC(=O)c1ccc(C2CC2)c(Cc2ccc(F)cc2)n1 (centres unmarked)	–	PAMPA	–	Papp	6.6 nm/s
CO[C@H]1C[C@@H]2CC[C@@H](C)[C@@](O)(O2)C(=O)C(=O)N2CCCC[C@H]2C(=O)O[C@H]([C@H](C)C[C@@H]2CC[C@@H](OC(=O)NCCOCCOCCOCCOCCOCCOCCOCCOCCC(=O)N3CCc4cc(Cn5nc(-c6ccc7oc(N)nc7c6)c6c(N)ncnc65)ccc4C3)[C@H](OC)C2)C[C@@H](O)[C@H](C)/C=C(\C)[C@@H](O)[C@@H](OC)C(=O)[C@H](C)C[C@H](C)/C=C/C=C/C=C/1C	phase 1 dose escalation, measured: diarrhoea	advanced solid tumour patients	intravenous, 16 mg weekly, grade ≥3	TRAE incidence	0%
CC(C)C[C@H](NC(=O)[C@H](CC(C)C)NC(=O)[C@@H](N)[C@@H](C)O)C(=O)N[C@@H](CCCCN)C(=O)N[C@@H](CCCCN)C(=O)N[C@H](C(=O)N[C@@H](CC(C)C)C(=O)N[C@@H](CCCCN)C(=O)N[C@@H](C)C(=O)N[C@@H](C)C(=O)N[C@@H](C)C(=O)N[C@@H](CCCCN)C(=O)NCCCC[C@H](NC(=O)[C@H](CCCCN)NC(=O)[C@H](C)NC(=O)[C@H](C)NC(=O)[C@H](C)NC(=O)[C@H](CCCCN)NC(=O)[C@H](CC(C)C)NC(=O)[C@@H](NC(=O)[C@H](CCCCN)NC(=O)[C@H](CCCCN)NC(=O)[C@H](CC(C)C)NC(=O)[C@H](CC(C)C)NC(=O)[C@@H](N)[C@@H](C)O)C(C)C)C(=O)NCCCC[C@H](NC(=O)[C@H](CCCCNC(=O)[C@H](CCCCN)NC(=O)[C@H](C)NC(=O)[C@H](C)NC(=O)[C@H](C)NC(=O)[C@H](CCCCN)NC(=O)[C@H](CC(C)C)NC(=O)[C@@H](NC(=O)[C@H](CCCCN)NC(=O)[C@H](CCCCN)NC(=O)[C@H](CC(C)C)NC(=O)[C@H](CC(C)C)NC(=O)[C@@H](N)[C@@H](C)O)C(C)C)NC(=O)[C@H](CCCCN)NC(=O)[C@H](C)NC(=O)[C@H](C)NC(=O)[C@H](C)NC(=O)[C@H](CCCCN)NC(=O)[C@H](CC(C)C)NC(=O)[C@@H](NC(=O)[C@H](CCCCN)NC(=O)[C@H](CCCCN)NC(=O)[C@H](CC(C)C)NC(=O)[C@H](CC(C)C)NC(=O)[C@@H](N)[C@@H](C)O)C(C)C)C(=O)NCCC(=O)O)C(C)C	–	human red blood cells	2 h, 37 °C	hemolytic concentration	5 µM
COc1ccc2nc3cc(Cl)ccc3c(Nc3cc(CN4CCCC4)c(O)c(CN4CCCC4)c3)c2n1	–	mouse, blood	oral, 57 mg/kg	blood pH	7.58
COc1ccc(-c2c(-c3ccc(C#N)c(F)c3)nc(N3CCC(N)CC3)n(C)c2=O)cc1F	measured: Colitis	human patients	oral, dose not given, dose escalation, NG	serious adverse event incidence	2%
CCCCN1CCC(COC(=O)c2ccc(N)c(O[11CH3])c2)CC1	–	n-octanol/phosphate buffer	pH 7.4, room temperature, 0.15 M sodium phosphate	logD7.4	1.77 ± 0.01
O=C(O)CCCOc1ccc(F)cc1-c1cc(-c2ccccc2C(F)(F)F)n(-c2ccccc2)n1	measured: γ-glb	Crl:CD(SD) rats, female, serum	iv, 25 µg/kg, 14 days	serum protein fraction	6.3 ± 2.3%
